Published values collected from several papers.
A part holds a random share of what one study measured. Positions count from the first letter of the parent shown.

Study 1 — technique: RNA Bind-n-Seq; molecule type: RNA; sample: in vitro; tested at: not given; relative to: input RNA pool; direction: higher = stronger binding
Target: RING finger protein unkempt homolog, zinc fingers 1-6, GST-SBP tag (UNK, Homo sapiens, UniProt Q9C0B0, residues 30-357)
Setting: RNA with constant flanks, human and mouse sites, ends assumed
Target sequence (chain): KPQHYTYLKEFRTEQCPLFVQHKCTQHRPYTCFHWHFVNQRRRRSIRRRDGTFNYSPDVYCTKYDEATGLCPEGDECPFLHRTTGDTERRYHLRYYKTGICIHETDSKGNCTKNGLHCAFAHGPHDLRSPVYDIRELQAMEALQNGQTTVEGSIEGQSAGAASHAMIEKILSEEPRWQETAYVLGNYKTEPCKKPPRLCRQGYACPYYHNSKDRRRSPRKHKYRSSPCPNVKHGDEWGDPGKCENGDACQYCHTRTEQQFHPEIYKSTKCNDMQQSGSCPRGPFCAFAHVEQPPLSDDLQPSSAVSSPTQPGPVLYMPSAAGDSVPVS
For `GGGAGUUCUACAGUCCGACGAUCACUAGUUAUUUAACAUUAUGCAAUGAAUAUGGGCAAGAAAAGAUUGAACCAGGGUCUUUGAAUGAGGAGCCCUUCAUGAAGACUGAAGGGAAUGGUGUUGAUACAAAAGCUAUUAAAAGCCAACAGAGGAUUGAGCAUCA`, the bound/input enrichment was 6.14 ratio.
For `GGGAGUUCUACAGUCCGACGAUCUUACAAAGGACAAUCUUGGGUGGAAUUGCGUUUGUUGCCAUAAAAGGAGCAUUUAAAGUUUACUUCAAACAGCAGCAAUAUUUACGACAGGCACACCGCAAAAUUCUGAAUUAUCCAGAACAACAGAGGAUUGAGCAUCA`, the bound/input enrichment was 0.166 ratio.
With `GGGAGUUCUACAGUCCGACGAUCGCUGAACCUGAUAUUAUUGAACAACUGGUGGAAUUUGCUUAUACUGCUAGAAUUUCCGUGAAUAGCAACAAUGUUCAGUCUUUGCUGGAUGCAGCAAACCAAUAUCAGAUUGAACCUGUGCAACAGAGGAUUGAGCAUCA` the bound/input enrichment was 0.438 ratio.
With `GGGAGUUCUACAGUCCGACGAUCACGAUCGGGGCCUACAUCAACACAACGCACUCACGGCUCACACACAUCAGUCCUCGGCACUAUAGUGAGUUUAUAGAGUUCCUCAGCAAAGCCCGAGAGACCUUCUUAAUGGCGCAUGAUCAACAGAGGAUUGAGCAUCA` the bound/input enrichment was 0.335 ratio.
`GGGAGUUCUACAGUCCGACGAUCUCCUUACAACAUGGUGACCUUGAGUACAGGCAAUGCUACCAAUUCCUCCACAAGCCCACCAUUGAAAACAUGCACCGCUUUAAUGCUGUGCAUAGACAACGAAGCUUUGGUCAACAGAACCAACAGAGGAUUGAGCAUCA` gave a bound/input enrichment of 0.0891 ratio.
With `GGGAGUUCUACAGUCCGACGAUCGAAAUUUUGAAAUGGUAUCUCAACAAGAUAAAGUUUGAUAAAUCUGUUGAUCCAGAAAUCAUAGCUCGAGGGACUGUUGGGUUCUCUGGAGCAGAGUUGGAGAAUCUUGUGAACCAAGCUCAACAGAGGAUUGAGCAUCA` the bound/input enrichment was 0.278 ratio.
With `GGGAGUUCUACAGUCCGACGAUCCUUCAAAAGCAUGUGGAGGAUCUGUUGACCAAAUUAAAAGAGGCCAAGGAACAACAGGCCAGUAUGGAAGAGAAAUUCCACAAUGAAUUAAAUGCCCACAUAAAACUUUCUAAUUUGUACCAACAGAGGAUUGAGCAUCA` the bound/input enrichment was 0.241 ratio.
`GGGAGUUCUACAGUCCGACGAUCGAAGUUCUUGCUGACCGGCCACUAUUCCCACAUGUUCUCUGCCAUAACUGUGCAGUUGAAUUUAAUUUCGGUCAAAAGGAAAAGCCAUACUUUCCAAUACCUGAAGACUGUACUUUUAUCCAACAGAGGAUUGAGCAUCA` gave a bound/input enrichment of 0.132 ratio.

Study 2 — target: CCNB2, cyclin fold, Cln2 fusion (human); technique: yeast growth competition, sequencing; sample: yeast; setting: weak parent motif; relative to: not given; direction: higher = stronger binding
Starting sequence: HIRA docking peptide (human); SLSKRKLELEVET
Under “normalised enrichment score”, `SLSKAKLELEVET [R5A]` is recorded as -0.627.
Under “normalised enrichment score”, `SLSKRKLELEAET [V11A]` is recorded as -0.425.
Under “normalised enrichment score”, `SLSKRKLELAVET [E10A]` is recorded as -0.437.
For `SLSKRKLEAEVET [L9A]`, “normalised enrichment score” read 0.0858.
`SLSKRKLELEVEA [T13A]` — result for “normalised enrichment score”: -0.0941.
`SLSKRKLALEVET [E8A]`: “normalised enrichment score” 0.365.
Under “normalised enrichment score”, `SLSKKKLELEVET [R5K]` is recorded as 0.0379.

Study 3 — technique: aptamer microarray, sandwich; molecule type: DNA with 2'F-ANA; sample: in vitro; tested at: 200 nM; with: Cy3 exosite-II aptamer, 400 nM; direction: higher = stronger binding; strand: GGTTGGTGTGGTTGG
Target: Prothrombin, mature alpha-thrombin (F2, Homo sapiens, UniProt P00734)
Setting: whole 15-mer aptamer, many near background
Under “mean fluorescence intensity”, `2'F-ANA at 3 4 5 6 7 8 10 11 13 14` is recorded as 46.8 a.u.
Under “mean fluorescence intensity”, `2'F-ANA at 1 3 4 6 7 8 13 14` is recorded as 72.4 a.u.
`2'F-ANA at 1 2 3 4 5 7 8 10 11 12 13`: “mean fluorescence intensity” 49.6 a.u.
Under “mean fluorescence intensity”, `2'F-ANA at 3 4 5 7 8 9 14` is recorded as 80.7 a.u.
For `2'F-ANA at 2 3 4 5 8 9 11 14 15`, “mean fluorescence intensity” read 49.9 a.u.
Under “mean fluorescence intensity”, `2'F-ANA at 1 3 4 6 7 8 10 11 15` is recorded as 61.3 a.u.
`2'F-ANA at 4 5 6 7 8 10 12 14`: “mean fluorescence intensity” 47.3 a.u.
`2'F-ANA at 4 5 9 10 11 12 15`: “mean fluorescence intensity” 49.5 a.u.

Single results of other studies
For `PhoQ, residues 284 288 289 292 302 303 SNGLAW`, the fold induction was 2.01 (PhoP, residues 12 14 15 18 19 IFFTR (Escherichia coli, UniProt P23836); Sort-seq, measured: YFP reporter; E. coli; PhoQ-PhoP variant library, with: 10 µM Mg2+; relative to: high Mg2+ state, higher = stronger signaling).

Repeated from above (study 2):
`SLSKRKLALEVET [E8A]`: “normalised enrichment score” 0.365.
